Results of several laboratories.
Every numbered part comes from another study and shows a few of its results, in no order. Substitutions count along the parent as printed.
Chain of UniProt Q15139 (whole entry, looked up): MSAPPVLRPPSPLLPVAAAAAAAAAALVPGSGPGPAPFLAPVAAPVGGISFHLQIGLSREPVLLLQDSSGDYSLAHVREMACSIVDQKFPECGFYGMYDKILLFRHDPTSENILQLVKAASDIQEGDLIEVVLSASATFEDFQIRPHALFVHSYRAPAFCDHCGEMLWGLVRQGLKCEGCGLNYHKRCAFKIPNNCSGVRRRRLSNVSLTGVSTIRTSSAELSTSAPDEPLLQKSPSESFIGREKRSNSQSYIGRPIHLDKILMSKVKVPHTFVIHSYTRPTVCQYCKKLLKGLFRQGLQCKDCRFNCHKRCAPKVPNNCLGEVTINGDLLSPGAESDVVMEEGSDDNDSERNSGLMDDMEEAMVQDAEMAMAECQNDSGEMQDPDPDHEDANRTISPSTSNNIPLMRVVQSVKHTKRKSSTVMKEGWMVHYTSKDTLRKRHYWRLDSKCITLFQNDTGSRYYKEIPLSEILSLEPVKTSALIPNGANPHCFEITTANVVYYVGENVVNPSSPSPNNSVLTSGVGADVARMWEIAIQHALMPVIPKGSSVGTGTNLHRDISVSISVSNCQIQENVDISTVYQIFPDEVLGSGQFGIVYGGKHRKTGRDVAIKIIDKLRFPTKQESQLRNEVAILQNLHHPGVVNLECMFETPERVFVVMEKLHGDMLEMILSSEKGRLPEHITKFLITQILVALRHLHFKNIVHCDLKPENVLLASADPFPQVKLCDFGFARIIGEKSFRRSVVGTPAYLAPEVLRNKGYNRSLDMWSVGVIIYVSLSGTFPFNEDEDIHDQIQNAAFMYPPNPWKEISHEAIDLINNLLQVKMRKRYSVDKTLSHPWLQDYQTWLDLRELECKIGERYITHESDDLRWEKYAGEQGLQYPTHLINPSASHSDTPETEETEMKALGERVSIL
Chain of UniProt Q9NQU5 (whole entry, looked up): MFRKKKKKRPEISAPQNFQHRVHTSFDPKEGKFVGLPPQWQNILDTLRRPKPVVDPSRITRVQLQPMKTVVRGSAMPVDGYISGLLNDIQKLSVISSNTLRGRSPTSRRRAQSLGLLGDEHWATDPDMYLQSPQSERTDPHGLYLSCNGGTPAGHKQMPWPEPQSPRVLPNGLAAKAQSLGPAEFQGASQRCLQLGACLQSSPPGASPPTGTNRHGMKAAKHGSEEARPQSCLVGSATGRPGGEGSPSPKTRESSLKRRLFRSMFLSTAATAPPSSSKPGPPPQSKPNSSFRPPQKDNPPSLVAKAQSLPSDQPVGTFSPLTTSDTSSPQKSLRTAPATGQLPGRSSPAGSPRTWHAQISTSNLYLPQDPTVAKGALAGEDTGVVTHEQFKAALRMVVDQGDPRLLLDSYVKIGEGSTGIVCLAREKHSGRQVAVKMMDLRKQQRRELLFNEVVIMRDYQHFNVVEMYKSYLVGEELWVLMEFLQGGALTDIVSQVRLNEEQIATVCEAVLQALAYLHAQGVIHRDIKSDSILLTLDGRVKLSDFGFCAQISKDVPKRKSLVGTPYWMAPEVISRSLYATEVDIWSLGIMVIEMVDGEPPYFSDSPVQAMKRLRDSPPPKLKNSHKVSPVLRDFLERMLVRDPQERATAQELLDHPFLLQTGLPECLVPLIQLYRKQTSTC
Chain of UniProt Q9BWU1 (whole entry, looked up): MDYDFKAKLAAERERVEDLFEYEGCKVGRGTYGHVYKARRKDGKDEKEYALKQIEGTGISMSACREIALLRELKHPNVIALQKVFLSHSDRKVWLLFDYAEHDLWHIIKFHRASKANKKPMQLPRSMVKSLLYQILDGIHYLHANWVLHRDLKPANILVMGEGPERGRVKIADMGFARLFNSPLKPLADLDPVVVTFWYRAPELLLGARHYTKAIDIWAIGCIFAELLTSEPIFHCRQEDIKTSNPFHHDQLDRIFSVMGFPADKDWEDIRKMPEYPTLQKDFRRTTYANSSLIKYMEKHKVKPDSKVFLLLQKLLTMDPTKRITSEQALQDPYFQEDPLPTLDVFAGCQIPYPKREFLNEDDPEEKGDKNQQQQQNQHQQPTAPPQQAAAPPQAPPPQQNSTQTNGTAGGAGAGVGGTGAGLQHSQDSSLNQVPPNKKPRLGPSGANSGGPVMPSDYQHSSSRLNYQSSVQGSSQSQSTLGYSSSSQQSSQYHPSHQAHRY
Chain of UniProt Q16816 (whole entry, looked up): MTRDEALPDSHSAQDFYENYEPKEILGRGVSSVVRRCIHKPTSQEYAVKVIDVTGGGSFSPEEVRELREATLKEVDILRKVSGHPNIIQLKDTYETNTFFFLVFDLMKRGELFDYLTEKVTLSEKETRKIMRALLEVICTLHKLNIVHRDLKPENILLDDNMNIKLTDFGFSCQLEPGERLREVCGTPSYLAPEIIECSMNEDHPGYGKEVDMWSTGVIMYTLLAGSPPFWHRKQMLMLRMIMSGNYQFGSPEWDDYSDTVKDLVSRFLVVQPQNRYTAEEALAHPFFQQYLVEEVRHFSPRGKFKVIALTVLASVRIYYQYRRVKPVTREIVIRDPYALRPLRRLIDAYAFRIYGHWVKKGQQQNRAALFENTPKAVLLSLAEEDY

Series 1
Target: PABPC1L2, full length, GST fusion (mouse, UniProt A0ABA7IW68)
Technique: RNAcompete
Form: RNA
Sample: in vitro
Tested at: 20 nM
Setting: 7-mer, probes averaged, single round
Baseline: mean of 7-mers
Reading: higher = stronger binding
Endpoint: 7-mer Z-score
Residues (chain): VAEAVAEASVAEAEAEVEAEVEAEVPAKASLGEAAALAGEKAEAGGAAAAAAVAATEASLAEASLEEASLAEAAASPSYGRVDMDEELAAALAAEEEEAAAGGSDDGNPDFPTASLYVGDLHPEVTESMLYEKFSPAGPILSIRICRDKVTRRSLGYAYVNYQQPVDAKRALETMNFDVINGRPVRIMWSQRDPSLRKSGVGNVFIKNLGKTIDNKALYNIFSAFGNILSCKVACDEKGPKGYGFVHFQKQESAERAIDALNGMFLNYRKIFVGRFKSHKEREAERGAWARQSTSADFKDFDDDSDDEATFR
Oligonucleotide = CAUUGUA; value = -0.175
Oligonucleotide = ACCGGUA; value = -0.00289
Oligonucleotide = UUAUCUC; value = -0.344
Oligonucleotide = GUUUACA; value = -0.215
Oligonucleotide = UCCCCGC; value = -0.454
Oligonucleotide = CCAGCAG; value = -0.0373
Oligonucleotide = CCACUGG; value = -0.208
Oligonucleotide = GUCGUGA; value = -0.34

Series 2
Compound: Cc1cc(C)c(-n2ccn3nc(-c4cccnc4)cc23)cc1NC(=O)c1cc(C#N)cc(S(F)(F)(F)(F)F)c1
Tested at: 0.1 µM
Endpoint: remaining binding
target = Serine/threonine-protein kinase D1 (PRKD1, Homo sapiens, UniProt Q15139); effect on = cell-free assay; technique = competition with immobilised ligand; value = 81.2%
target = Epidermal growth factor receptor (EGFR, Homo sapiens, UniProt P00533, del746-750); effect on = cell-free assay; technique = competition with immobilised ligand; value = 72.9%
target = Cyclin-dependent kinase 19 (CDK19, Homo sapiens, UniProt Q9BWU1); technique = competition binding; value = 90.7%
target = Mitogen-activated protein kinase kinase kinase 10 (MAP3K10, Homo sapiens, UniProt Q02779); effect on = cell-free assay; technique = competition with immobilised ligand; value = 100%
target = NUAK family SNF1-like kinase 1 (NUAK1, Homo sapiens, UniProt O60285); effect on = cell-free assay; technique = competition with immobilised ligand; value = 100%
target = 5'-AMP-activated protein kinase catalytic subunit alpha-1 (PRKAA1, Homo sapiens, UniProt Q13131); effect on = cell-free assay; technique = competition with immobilised ligand; value = 77%
target = Dual specificity mitogen-activated protein kinase kinase 2 (MAP2K2, Homo sapiens, UniProt P36507); effect on = cell-free assay; technique = competition with immobilised ligand; value = 74.4%
target = Ephrin type-B receptor 2 (EPHB2, Homo sapiens, UniProt P29323); effect on = cell-free assay; technique = competition with immobilised ligand; value = 71.4%
target = Phosphorylase b kinase gamma catalytic chain, skeletal muscle/heart isoform (PHKG1, Homo sapiens, UniProt Q16816); effect on = cell-free assay; technique = competition with immobilised ligand; value = 80.1%
target = High affinity nerve growth factor receptor (NTRK1, Homo sapiens, UniProt P04629); effect on = cell-free assay; technique = competition with immobilised ligand; value = 74.8%
target = RAC-beta serine/threonine-protein kinase (AKT2, Homo sapiens, UniProt P31751); effect on = cell-free assay; technique = competition with immobilised ligand; value = 88.4%
target = Proto-oncogene tyrosine-protein kinase receptor Ret (RET, Homo sapiens, UniProt P07949); effect on = cell-free assay; technique = competition with immobilised ligand; value = 82%
target = Casein kinase I isoform gamma-1 (CSNK1G1, Homo sapiens, UniProt Q9HCP0); effect on = cell-free assay; technique = competition with immobilised ligand; value = 91.1%
target = Serine/threonine-protein kinase Nek3 (NEK3, Homo sapiens, UniProt P51956); effect on = cell-free assay; technique = competition with immobilised ligand; value = 70.7%
target = Serine/threonine-protein kinase PLK1 (PLK1, Homo sapiens, UniProt P53350); effect on = cell-free assay; technique = competition with immobilised ligand; value = 100%
target = Myosin light chain kinase (MYLK3, Homo sapiens, UniProt Q32MK0); effect on = cell-free assay; technique = competition with immobilised ligand; value = 100%
target = Receptor-type tyrosine-protein kinase FLT3 (FLT3, Homo sapiens, UniProt P36888, D835Y); effect on = cell-free assay; technique = competition with immobilised ligand; value = 91.4%
target = Leukocyte tyrosine kinase receptor (LTK, Homo sapiens, UniProt P29376); effect on = cell-free assay; technique = competition with immobilised ligand; value = 32.8%
target = Tyrosine-protein kinase ABL1, phosphorylated (ABL1, Homo sapiens, UniProt P00519, Q252H); effect on = cell-free assay; technique = competition with immobilised ligand; value = 72.9%
target = Dual serine/threonine and tyrosine protein kinase (DSTYK, Homo sapiens, UniProt Q6XUX3); effect on = cell-free assay; technique = competition with immobilised ligand; value = 71.1%
target = Serine/threonine-protein kinase PAK 6 (PAK6, Homo sapiens, UniProt Q9NQU5); effect on = cell-free assay; technique = competition with immobilised ligand; value = 70.1%

Series 3
Target: Proto-oncogene tyrosine-protein kinase ROS (ROS1, Homo sapiens, UniProt P08922)
Chain of UniProt P08922 (whole entry, looked up): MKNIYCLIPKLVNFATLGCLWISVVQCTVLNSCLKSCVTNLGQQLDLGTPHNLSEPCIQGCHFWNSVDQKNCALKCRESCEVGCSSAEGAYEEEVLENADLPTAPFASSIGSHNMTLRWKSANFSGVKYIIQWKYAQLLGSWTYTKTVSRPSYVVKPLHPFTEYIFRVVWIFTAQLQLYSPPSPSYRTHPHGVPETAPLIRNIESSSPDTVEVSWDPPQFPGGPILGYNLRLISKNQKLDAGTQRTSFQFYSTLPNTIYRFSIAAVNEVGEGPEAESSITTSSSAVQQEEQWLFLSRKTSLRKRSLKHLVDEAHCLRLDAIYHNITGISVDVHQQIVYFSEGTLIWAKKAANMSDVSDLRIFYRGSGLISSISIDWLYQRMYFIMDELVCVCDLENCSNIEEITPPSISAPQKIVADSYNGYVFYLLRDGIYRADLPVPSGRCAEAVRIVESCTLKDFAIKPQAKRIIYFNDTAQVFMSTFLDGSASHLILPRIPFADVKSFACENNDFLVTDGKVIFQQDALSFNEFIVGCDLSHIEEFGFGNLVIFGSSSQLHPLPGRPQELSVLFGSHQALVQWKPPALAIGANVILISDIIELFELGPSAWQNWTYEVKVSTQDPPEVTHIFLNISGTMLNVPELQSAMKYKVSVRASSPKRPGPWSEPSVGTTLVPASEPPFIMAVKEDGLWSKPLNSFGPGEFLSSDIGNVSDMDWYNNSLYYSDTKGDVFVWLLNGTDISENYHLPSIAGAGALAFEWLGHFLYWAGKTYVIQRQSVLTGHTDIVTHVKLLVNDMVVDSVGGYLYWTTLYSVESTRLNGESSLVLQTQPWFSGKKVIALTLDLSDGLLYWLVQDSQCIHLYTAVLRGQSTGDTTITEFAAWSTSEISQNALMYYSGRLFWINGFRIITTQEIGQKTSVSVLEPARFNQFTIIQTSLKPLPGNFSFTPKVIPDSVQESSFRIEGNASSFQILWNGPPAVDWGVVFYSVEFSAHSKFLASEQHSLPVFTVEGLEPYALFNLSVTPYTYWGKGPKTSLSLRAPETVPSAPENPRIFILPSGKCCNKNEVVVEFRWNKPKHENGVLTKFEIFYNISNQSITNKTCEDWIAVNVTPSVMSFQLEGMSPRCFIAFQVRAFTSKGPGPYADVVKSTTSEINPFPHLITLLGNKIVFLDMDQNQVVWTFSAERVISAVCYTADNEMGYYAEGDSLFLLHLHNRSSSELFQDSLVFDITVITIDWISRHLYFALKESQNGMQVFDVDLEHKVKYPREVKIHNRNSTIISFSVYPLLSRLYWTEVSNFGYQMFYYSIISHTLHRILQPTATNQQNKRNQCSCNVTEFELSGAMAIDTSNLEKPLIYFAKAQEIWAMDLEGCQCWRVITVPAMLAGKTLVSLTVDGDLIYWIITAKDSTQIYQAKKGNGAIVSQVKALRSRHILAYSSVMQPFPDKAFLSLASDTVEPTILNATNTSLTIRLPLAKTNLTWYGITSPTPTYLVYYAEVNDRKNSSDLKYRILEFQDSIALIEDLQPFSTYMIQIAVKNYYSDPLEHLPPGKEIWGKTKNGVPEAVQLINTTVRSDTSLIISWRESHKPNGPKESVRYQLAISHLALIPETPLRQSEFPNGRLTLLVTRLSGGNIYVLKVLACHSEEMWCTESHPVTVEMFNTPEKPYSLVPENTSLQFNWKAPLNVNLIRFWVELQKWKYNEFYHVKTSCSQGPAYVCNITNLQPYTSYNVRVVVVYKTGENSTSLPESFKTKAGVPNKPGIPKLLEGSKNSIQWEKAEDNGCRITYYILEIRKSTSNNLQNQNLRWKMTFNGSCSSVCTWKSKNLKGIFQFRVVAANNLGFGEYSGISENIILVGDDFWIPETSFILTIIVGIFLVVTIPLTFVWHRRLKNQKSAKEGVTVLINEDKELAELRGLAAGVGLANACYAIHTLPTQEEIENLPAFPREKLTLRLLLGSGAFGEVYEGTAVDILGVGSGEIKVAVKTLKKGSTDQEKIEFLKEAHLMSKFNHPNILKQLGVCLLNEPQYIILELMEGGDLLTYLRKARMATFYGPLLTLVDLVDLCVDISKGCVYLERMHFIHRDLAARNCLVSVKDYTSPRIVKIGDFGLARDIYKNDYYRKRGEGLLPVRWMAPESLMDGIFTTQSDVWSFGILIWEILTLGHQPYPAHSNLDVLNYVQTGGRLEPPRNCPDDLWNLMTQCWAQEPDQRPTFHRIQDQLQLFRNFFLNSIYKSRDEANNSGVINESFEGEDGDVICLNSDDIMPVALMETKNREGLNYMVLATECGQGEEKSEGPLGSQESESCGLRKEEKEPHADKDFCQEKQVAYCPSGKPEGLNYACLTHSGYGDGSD
Effect on: enzyme activity
Mode: inhibitor
Tested at: 0.5 µM
Baseline: control
Endpoint: remaining activity
SMILES = O=c1c2ccccc2[nH]c(=S)n1CCN1CCC(=C(c2ccc(F)cc2)c2ccc(F)cc2)CC1; value = 98.8%
SMILES = Cc1cccc(-c2[nH]c(C(C)(C)C)nc2-c2ccc3c(c2)OCO3)n1; value = 101%
SMILES = Cc1ccc(Nc2nccc(N(C)c3ccc4c(C)n(C)nc4c3)n2)cc1S(N)(=O)=O; value = 17%
SMILES = CC(C)[C@H](CO)Nc1nc(Nc2cc(N)cc(Cl)c2)c2ncn(C(C)C)c2n1; value = 96.5%
SMILES = OCC(O)CCON=C1C(c2c(O)[nH]c3ccccc23)=Nc2ccccc21 (stereo not shown); value = 27%
SMILES = Cn1c2ccccc2c2c3c(c4c5ccccc5n(CCC#N)c4c21)CNC3=O; value = 1.18%
SMILES = Cc1ccc(NC(=O)c2ccc(CN3CCN(C)CC3)cc2)cc1Nc1nc(-c2cccnc2)cs1; value = 91.5%
SMILES = CO[C@H]1C[C@@H]2CC[C@@H](C)[C@@](O)(O2)C(=O)C(=O)N2CCCC[C@H]2C(=O)O[C@H]([C@H](C)C[C@@H]2CC[C@@H](O)[C@H](OC)C2)CC(=O)[C@H](C)/C=C(\C)[C@@H](O)[C@@H](OC)C(=O)[C@H](C)C[C@H](C)/C=C/C=C/C=C/1C; value = 85%
SMILES = Cn1sc(=O)n(Cc2ccccc2)c1=O; value = 103%
SMILES = Nc1[nH]nc2nc3ccccc3nc12; value = 106%
SMILES = Nc1ncnc2n[nH]c(Nc3ccc(F)cc3)c12; value = 99.9%
SMILES = COc1cc2nccc(Oc3ccc(NC(=S)NC(=O)c4ccccc4C)cc3)c2cc1OC; value = 26.7%
SMILES = C#Cc1cccc(Nc2ncnc3cc(OCCOC)c(OCCOC)cc23)c1; value = 99.6%
SMILES = Nc1ccc2ncnc(NCCc3ccc(Oc4ccccc4)cc3)c2c1; value = 97.8%
SMILES = O=C1NC(=O)C(c2cn(CCCO)c3ncccc23)=C1c1cnccn1; value = 106%

Series 4
Target: CREBZF, bZIP domain (human)
Technique: DHFR protein complementation
Sample: yeast
Setting: single substitutions, most at no-binding floor
Baseline: wild-type JUN-FOS pair
Reading: higher = stronger binding
Endpoint: binding fitness
Parent: JUN, bZIP domain (human); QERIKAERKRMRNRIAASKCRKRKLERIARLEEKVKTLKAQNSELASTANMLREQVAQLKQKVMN; partner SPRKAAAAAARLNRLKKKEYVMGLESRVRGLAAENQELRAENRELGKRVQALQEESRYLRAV
Variant = L45P; value = -1.49 natural log
Variant = I28R; value = -1.47 natural log
Variant = E33H; value = -1.52 natural log
Variant = V56L; value = -1.38 natural log
Variant = E33G; value = -1.48 natural log
Variant = L45T; value = -1.51 natural log
Variant = L38Q; value = -1.5 natural log
Variant = L45D; value = -1.48 natural log

Repeated from above (series 3):
SMILES = COc1cc2nccc(Oc3ccc(NC(=S)NC(=O)c4ccccc4C)cc3)c2cc1OC; value = 26.7%
SMILES = O=c1c2ccccc2[nH]c(=S)n1CCN1CCC(=C(c2ccc(F)cc2)c2ccc(F)cc2)CC1; value = 98.8%
SMILES = Nc1ncnc2n[nH]c(Nc3ccc(F)cc3)c12; value = 99.9%
SMILES = Cc1ccc(NC(=O)c2ccc(CN3CCN(C)CC3)cc2)cc1Nc1nc(-c2cccnc2)cs1; value = 91.5%
